Published values from different studies.
Compare with care: the assays were run in different laboratories. ± marks the error that the study gave.
Cell line: Caco-2

Structure (SMILES) | assay | system | conditions | how to read | measurement | result
CC(C)[C@H]1C(=O)N[C@@H](CCCN=C(N)N)C(=O)NCC(=O)N[C@@H](CC(=O)O)C(=O)N[C@H](Cc2ccccc2)C(=O)N1C |  |  | 20 µM | baseline: Papp B-A over Papp A-B | efflux ratio | 1.4
C[C@]12CC[C@H]3[C@@H](CCC4=CC(=O)CC[C@@]43C)[C@@H]1CC[C@@H]2O |  |  | 60 min, apical to basolateral |  | mass balance | 69.5 ± 6.3%
C[C@@H](NC(=O)[C@@H](C)NC(=O)[C@H](CCCCNC(=O)c1ccc(NC(=O)CCl)cc1)NC(=O)c1ccc(NC(=O)CCl)cc1)C(=O)O |  |  | 10 µM |  | Papp | < 1 ×10⁻⁶ cm/s
CN(C)c1ccc(N(Cc2cc(Cl)cs2)C(=O)Cc2cncc3cccc(O)c23)cc1 |  |  | 48 h |  | CC50 | 67.6 µM
NC(=O)CC[C@H](NC(=O)[C@@H]1CCCN1C(=O)[C@H](CCC(N)=O)NC(=O)[C@@H]1CCCN1C(=O)[C@@H](N)Cc1ccc(O)cc1)C(=O)O | CCK-8 |  | 400 µM |  | viability | > 75%
C[C@@H]1O[C@@H](OC[C@H]2O[C@@H](Oc3c(-c4ccc(O)c(O)c4)oc4cc(O)cc(O)c4c3=O)[C@H](O)[C@@H](O)[C@@H]2O)[C@H](O)[C@H](O)[C@H]1O | CCK-8 |  | 10 µM, 24 h |  | viability | 103%
CC(C)C[C@H](NC(=O)OCc1ccccc1)C(=O)N[C@H](C=O)C[C@@H]1CCCNC1=O | cytotoxicity |  |  |  | CC50 | > 100 µM
CC(C)NCC(O)COc1cccc2ccccc12 (stereo not drawn) |  | human plasma | pH 7.4, corrected for plasma protein binding |  | apparent permeability A-B | 65 ×10⁻⁶ cm/s
C/C=C1/CN2CC[C@]34C(=Nc5ccccc53)[C@@H]2C[C@@H]1C4(COC(C)=O)C(=O)OC (stereo partly drawn) |  |  |  | baseline: B-A over A-B | efflux ratio | 1
CC[C@H](C)[C@H](NC(=O)[C@@H](N)CC(N)=O)C(=O)N1CCC[C@H]1C(=O)N1CCC[C@H]1C(=O)N[C@@H](CC(C)C)C(=O)N[C@H](C(=O)N[C@@H](CCC(N)=O)C(=O)N[C@H](C(=O)N1CCC[C@H]1C(=O)N[C@H](C(=O)N[C@H](C(=O)N[C@H](C(=O)N1CCC[C@H]1C(=O)N1CCC[C@H]1C(=O)N[C@@H](Cc1ccccc1)C(=O)N[C@@H](CC(C)C)C(=O)N[C@@H](CCC(N)=O)C(=O)N1CCC[C@H]1C(=O)N[C@@H](CCC(=O)O)C(=O)O)C(C)C)C(C)C)C(C)C)[C@@H](C)O)[C@@H](C)O |  |  | 10 µM, 60 min, apical to basal |  | Papp | 1.22 ×10⁻⁶ cm/s
O=C(CCCN1CCC2(CC1)C(=O)NCN2c1ccccc1)N(CC1CCCCC1)c1ccccc1 | Caco-2 permeability |  | time not given, apical to basolateral |  | recovery | 47.4%
COc1nc(NCc2cn(-c3ccc(C(=O)Nc4ccc(C(F)(F)F)cc4)cc3)nn2)nc(OC)n1 | MTT |  |  | baseline: normal rat colonocytes over Caco-2 | selectivity ratio | 0.44
O=c1cc(-c2ccc(O)cc2)oc2c([C@@H]3O[C@H](CO)[C@@H](O)[C@H](O)[C@H]3O)c(O)cc(O)c12 | CCK-8 |  | 20 µM, 24 h |  | viability | 105%
CC(C)NCC(O)COc1cccc2ccccc12 (stereo not drawn) |  |  | 10 µM, 2 h, pH 7.4 |  | Papp | > 5 ×10⁻⁶ cm/s
O=c1c(O[C@@H]2O[C@H](CO)[C@H](O)[C@H](O)[C@H]2O)c(-c2ccc(O)c(O)c2)oc2cc(O)cc(O)c12 | CCK-8 |  | 0.625 µM, 24 h |  | viability | 105%
CC(C)CC(=O)OC[C@H]1O[C@@](C#N)(c2ccc3c(N)ncnn23)[C@H](O)[C@@H]1O | bidirectional permeability |  | 9 µM, 120 min | apical to basolateral | recovery | 103%
C/C=C1/CN2[C@@H]3C[C@@]45c6ccccc6N[C@]4(O3)[C@@H]2C[C@@H]1[C@@]5(COC(C)=O)C(=O)OC |  |  |  | baseline: B-A over A-B | efflux ratio | 1.3
CC(C)C[C@H](NC(=O)[C@H](Cc1ccccc1)NC(=O)[C@H](CC(C)C)NC(=O)[C@H](CC(C)C)NC(=O)[C@H](CC(C)C)NC(=O)[C@@H](N)CCCNC(=N)N)C(=O)N[C@@H](CCCNC(=N)N)C(=O)N[C@@H](CCCNC(=N)N)C(=O)N[C@@H](CS)C(=O)NCC(=O)N[C@@H](CCCNC(=N)N)C(=O)O | MTT |  | concentration not given, 24 h |  | cytotoxicity | not toxic
